Measurements collected from several papers.
Every numbered part comes from another study and shows a few of its results, in no order.

Block 1
Target: Histone acetyltransferase KAT6A, both winged helices, GST fusion (KAT6A, Homo sapiens, UniProt Q92794, residues 1-181)
Method: protein binding microarray
Form: double-stranded DNA, one strand shown
Sample: in vitro
Concentration: not given
Notes: 8-mer, flanks averaged, mean of 2 arrays, mostly near background
Baseline: not given
Reading: higher = stronger binding
Target sequence (chain): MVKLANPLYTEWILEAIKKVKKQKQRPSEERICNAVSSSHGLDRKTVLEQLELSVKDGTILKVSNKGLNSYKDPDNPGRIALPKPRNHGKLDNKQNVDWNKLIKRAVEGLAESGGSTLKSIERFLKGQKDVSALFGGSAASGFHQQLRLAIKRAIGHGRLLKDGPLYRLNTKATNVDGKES
Oligonucleotide	E-score
CCCAACAG	-0.235
CGGGCTGC	0.12
ACTATAAG	-0.0864
CGTCCGAG	0.183
ACGACGGC	0.237
ATTTATAC	0.0648
GCGTTTCA	0.219
ATCCCCCA	-0.27
TAAAACAA	-0.0374
AAAACTGA	-0.101
AAAATTGC	0.116
ACTGCGAT	-0.0173
CAAGCGAC	0.159
ACGTGGGG	-0.284
TCCGTCAA	0.238
CACATACC	0.0279
GGGATCCC	0.112
ACAATCTC	0.026
ACCTCATA	-0.162
ATCGTGAG	-0.0336

Block 2
Target: Sal-like protein 4, full length isoform B (SALL4, Homo sapiens, UniProt Q9UJQ4-2, residues 1-616)
Method: universal PBM
Form: double-stranded DNA, one strand shown
Sample: in vitro
Concentration: not given
Notes: 8-mer, flanks averaged, mean of replicates
Reading: higher = stronger binding
Oligonucleotide	E-score
CATAGTAC	0.017
ATCTACTA	0.35
CTTCCTTC	-0.122
GTATCGTA	0.199
CGTGGTGC	-0.259
ACCCCTCA	-0.21
ACCCTCGA	-0.161
AATAGGAG	0.0794
CTTGCTGC	-0.22
TAGTTTGA	0.15
ACTGGACG	-0.152
CACATCTC	-0.0317
CAGTTACA	0.148
CGGTCCAG	-0.326
AGCAGAAC	-0.0508
CAAGCCTA	0.0661
GCCTATCA	-0.02
ATAATGCA	0.317
GCAGACGC	-0.273
ATTTATTC	0.365

Block 3
Target: RNA binding protein fox-1 homolog 2, RRM domain, GST-SBP tag (RBFOX2, Homo sapiens, UniProt O43251-10, residues 100-194)
Method: RNA Bind-n-Seq
Form: RNA
Sample: in vitro
Concentration: 365 nM
Notes: natural RNA segment, single round, ends assumed
Baseline: no-protein control
Reading: higher = stronger binding
Construct (chain): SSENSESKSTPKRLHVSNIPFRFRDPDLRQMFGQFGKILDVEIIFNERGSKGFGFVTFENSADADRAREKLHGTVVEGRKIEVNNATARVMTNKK
Oligonucleotide	RBNS enrichment (R)
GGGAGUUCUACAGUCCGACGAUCGUGGAUACUGCAUGUGAACUAUGGUUUUGAACUCUUCCUCCUCCUCCUUGAGAGCCCCGCCCUGCGCCCGCGUGGUGCCUGCCUGCCAGGCCUGGGGCGUGCAGCCGGGGUGGAAUUCUCGGGUGCCAA	9.15
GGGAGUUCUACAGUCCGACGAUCUCACCUGCUCCCUGCCCAUAUCUACCACAGGCCACUUUGGCAUGGUAUGUAAGCUGAGCUCUUCAUUCUGUCAUGAGAAGAGGACCAUGCUGCUAUCAUUUAUUUGGUCCUGGAAUUCUCGGGUGCCAA	0.417
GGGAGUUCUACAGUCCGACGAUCUUAUGCAACAUGCAGAAUGCUGUUUUUAGCCUUGUUUUACCAGAGUUGUUUUUUUUUUCAGUUAUUUCUUCAAGGGAAACUAAAUGAUUUAGUUGGAGCAAAGCUUUAAGUGGAAUUCUCGGGUGCCAA	0.405
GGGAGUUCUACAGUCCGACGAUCAUAUCAUUGAUGUAAAACCCUUGGACUUAGGGGGCAUGAGGAUUUAAUAUGCCUGCGGGGUAACGAUGUUACCACAGCAAUGGCAGCUUCAACUUACUUGUUCUAAGCACUGGAAUUCUCGGGUGCCAA	0.277
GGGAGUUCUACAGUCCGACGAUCGCGCUCCCUUCAGCCGCCUCGUCGUCAGCGUUCUUAGUCAUGCAUUAUUCGUGUUAGCUGAAAUGCAUUCAGACUUUGUUCUGCGGUGCCCACAGGACUUACCCCUGUAUUGGAAUUCUCGGGUGCCAA	0.278
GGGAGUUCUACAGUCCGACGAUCUUCUGCUGGCUUCUCCGGCUUUCAGAGCCCUGAAACAAAGAGAAACAGGAUCUGUCCCUACCCAGCACAGCAAAUGGUUGUAGUAAUUGCCAAAGCCCUCAUAAAGCCCUUGGAAUUCUCGGGUGCCAA	0.226
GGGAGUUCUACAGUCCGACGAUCUGCUGCUUUAGUCUUCUUUUCUUUGAUGCUUUGUUUAGAUGUUUAUAAGAAAUAGGUUUAUUUUUCCAGUGUAAAUUUCAGAAUUUAAAGAAAACUGGUUGUAGUUUACUUGGAAUUCUCGGGUGCCAA	0.876
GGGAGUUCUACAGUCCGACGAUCGGUCCAUGGGAAUGGACAUGAAGAGGAUUUCACAGUAUGUAGAGCAGAAGGCACGUGAAUGUGUUUGCUUUGGCUUGGAGCUUAUUAAGUUUUGACUACGGUUAAAAUAAUGGAAUUCUCGGGUGCCAA	0.931
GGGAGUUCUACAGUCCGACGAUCAACAAAAAUAGAAGACAAAAGAAAGACAUAUGAAAGGAAUUGUAAUUGGCUUAACAGAAACAGUCUGUAAAAACCUAACAGUGGUGCAAUCAUGUUGUCUGUGUUGUGUUUGGAAUUCUCGGGUGCCAA	0.418
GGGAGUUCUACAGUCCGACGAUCGAUGCCUUGCCAGUGUGUCUUACUUGGUUGCUGAACAUCUUGCCACCUCCGAGUGCUUUGUCUCCACUCAGUACCUUGGAUCAGAGCUGCUGAGUUCAGGAUGCCUGCGUUGGAAUUCUCGGGUGCCAA	0.867
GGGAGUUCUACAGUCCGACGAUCGCACUUGUAAACAUACGACAUGAUGUUAAAAUUGAAAGCAGGACUGAACUAACGUAUUCAAUAUUGAAUAUGUAGAUAUCAGUAGUCAAGUAGGAUAUUUCUUUAGAUUGUGGAAUUCUCGGGUGCCAA	0.409
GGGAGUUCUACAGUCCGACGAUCUGCUCACUCAUCUCAGCUCCAGCCGCACAGCCACAGCCUCAGGUCUGUUUAGCUUGGGAAGCCAAAAGUGGAUGCCUGUGUUCAUGGGCCUCCCCUGGGAGUUAGUGAUUUGGAAUUCUCGGGUGCCAA	0.486

Block 4
Target: PABPC1L2, full length, GST fusion (mouse, UniProt A0ABA7IW68)
Method: RNAcompete
Form: RNA
Sample: in vitro
Concentration: 20 nM
Notes: 7-mer, probes averaged, single round
Baseline: mean of 7-mers
Reading: higher = stronger binding
Residues (chain): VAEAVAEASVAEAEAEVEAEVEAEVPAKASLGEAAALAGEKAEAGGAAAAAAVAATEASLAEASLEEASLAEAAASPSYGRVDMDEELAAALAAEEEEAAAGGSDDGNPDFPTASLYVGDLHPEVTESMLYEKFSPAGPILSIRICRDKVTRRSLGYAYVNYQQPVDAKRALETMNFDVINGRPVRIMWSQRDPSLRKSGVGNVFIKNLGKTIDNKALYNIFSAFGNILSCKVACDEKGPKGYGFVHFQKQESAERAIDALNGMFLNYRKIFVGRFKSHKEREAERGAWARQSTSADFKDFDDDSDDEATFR
Oligonucleotide	7-mer Z-score
CGUCCUG	-0.32
CGCCCAA	-0.275
UUAGAAU	-0.132
CAGCUGU	-0.148
GGUCGCU	-0.257
GGGAGUA	0.1
GCCGCUG	-0.146
GCUCCCC	-0.269
CGUGUUU	-0.458
CCCAUUG	-0.325
CCGCAAU	-0.209
UUUCAAA	0.151
AAGUCGA	0.169
GCAUUCA	-0.0355
GCGGAAG	-0.0409
UUCCACG	-0.271
GUACUCA	-0.122
UAACGCC	-0.3
GUCGAAC	-0.217
GGCUCAA	0.247
GGCUAGA	0.173
UCUCAUG	-0.298
UCUUUCU	-0.498

Block 5
Target: Ras GTPase-activating protein-binding protein 1, C-terminal RGG region (G3BP1, Homo sapiens, UniProt Q13283)
Chain of UniProt Q13283 (whole entry, looked up): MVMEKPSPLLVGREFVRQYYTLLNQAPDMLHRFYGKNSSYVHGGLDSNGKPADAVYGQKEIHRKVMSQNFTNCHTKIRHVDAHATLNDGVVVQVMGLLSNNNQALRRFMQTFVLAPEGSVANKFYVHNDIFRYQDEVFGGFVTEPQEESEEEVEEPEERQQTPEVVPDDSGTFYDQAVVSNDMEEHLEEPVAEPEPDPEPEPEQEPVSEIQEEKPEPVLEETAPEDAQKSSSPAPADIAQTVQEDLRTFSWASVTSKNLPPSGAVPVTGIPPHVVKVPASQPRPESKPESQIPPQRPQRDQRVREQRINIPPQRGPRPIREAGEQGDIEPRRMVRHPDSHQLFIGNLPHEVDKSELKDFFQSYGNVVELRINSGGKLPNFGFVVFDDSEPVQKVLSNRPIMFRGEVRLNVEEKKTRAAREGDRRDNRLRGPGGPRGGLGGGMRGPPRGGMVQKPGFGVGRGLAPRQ
Method: RNA Bind-n-Seq
Form: RNA
Sample: in vitro
Concentration: 1 µM
Notes: whole 134-nt RNA, ends assumed
Added: 150 mM KCl
Baseline: input library
Reading: higher = stronger binding
Oligonucleotide	log2 enrichment
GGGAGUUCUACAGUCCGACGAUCGUCCUGUGCUACACAUCGUAUGUACCGAAUCGGUUUUUUUGGUUUUUUUGGAAAAAGGAAAGUAUUAUGUUACGCCGUUCGGAUCUGCACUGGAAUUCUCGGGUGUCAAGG	-1.75
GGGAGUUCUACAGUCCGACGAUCUGGGAGGUGGAUUUUGUUUAUUUUUUUAGCUCAUUUCCAGGGGUGGGAAUUUUUUUUUAAUAUGUGUCAUGAAUAAAGUUCUUUUUGAAAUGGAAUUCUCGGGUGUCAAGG	3.63
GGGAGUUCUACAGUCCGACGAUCCACAGACAACACGCACCCCCACAGACACAGAGGGAAGGGGUUGGGAUGGGGACAGGGUGCACAGCAGGGCGGGGUAGGACCCCAGCCCCUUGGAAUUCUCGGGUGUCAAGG	-0.0632
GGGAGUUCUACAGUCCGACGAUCAGAGAAUAAGAAUUCAGCUGACAGGAGGCCUCUAUCCUGUCCCUCCACCCCACCCUCCACCUCAAUCCCCUCCCAUCUUCCCCAGACCUAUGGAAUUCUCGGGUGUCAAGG	0.239
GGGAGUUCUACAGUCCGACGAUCGUCCUGUGCUACACAUCGUAUGUACCGAAUCGGGGUUUGGGGUGGGGAAAAAAAGGGGAAAGUAUUAUGUUACGCCGUUCGGAUCUGCACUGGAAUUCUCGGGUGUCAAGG	1.37
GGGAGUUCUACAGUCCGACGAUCACCAUGCAGGUGGGCAUCUUUGGGAAGUGGGGCAAGGGGGGGAUCGGGAGGGGGGUAACACUUUGGGAACAGGUGGUCCCAGGUCGUUUCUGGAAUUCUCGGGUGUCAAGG	1.69
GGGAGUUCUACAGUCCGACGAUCCACAGACAACACGCACCCACACAGACACAGAGGGAAGGGGUUGGGAUGGGGACAGGGUGCACAUCAGGGCGGGGUAGGACCCCAGCCCCUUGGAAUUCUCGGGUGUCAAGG	-0.334
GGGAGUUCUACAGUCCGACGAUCUUGGAGGUGGAUUUUGUUUAUUUUUUUAGCUCAUUUCCAGGGGUGGGAAUUUUUUUUUAAUAUGUGUCAUGAAUAAAGUUGUUUUUGAAAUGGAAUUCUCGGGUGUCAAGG	3.14
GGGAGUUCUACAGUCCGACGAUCCAAGUCCUGUGCUACACAUCGUAUGUACCGAAUCGGGGAAAGGAAAGGGGAAAGGAAAGUAUUAUGUUACGCCGUUCGGAUCUGCACUUCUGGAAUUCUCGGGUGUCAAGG	-1.24
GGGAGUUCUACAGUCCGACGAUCAGUCCUGUGCUACACAUCGUAUGUACCGAAUCGGUUUUUUUGGAAAAAAAGGAAAGGAAAGUAUUAUGUUACGCCGUUCGGAUCUGCACUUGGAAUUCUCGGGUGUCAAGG	-2.46

Some of these lines once more (block 4):
Oligonucleotide	7-mer Z-score
GUACUCA	-0.122
GGCUCAA	0.247
GCCGCUG	-0.146
GCGGAAG	-0.0409
CGCCCAA	-0.275
GGCUAGA	0.173
UCUUUCU	-0.498
GCAUUCA	-0.0355
UUAGAAU	-0.132
UAACGCC	-0.3
CAGCUGU	-0.148
AAGUCGA	0.169
CCGCAAU	-0.209
